Assay results of several laboratories.
Numbered parts are unrelated; each lists some results of a single study. Numbers after ± are the reported error.

Study 1
Target: HIV-1 TAR RNA
Tested at: concentration not given
Temperature: 25 °C
For `CC(=O)NCCN(CC(=O)NCCN(CC(=O)NCCN(CC(=O)NCCC(N)=O)C(=O)C[C@@H](N)CCCCN)C(=O)C[C@@H](N)Cc1ccccc1)C(=O)C[C@@H](N)Cc1ccccc1`, “binding entropy term TΔS°” read 1.46 ± 0.167 kcal/mol.
For `CC(=O)NCCN(CC(=O)NCCN(CC(=O)NCCN(CC(=O)NCCC(N)=O)C(=O)C[C@@H](N)Cc1ccccc1)C(=O)C[C@@H](N)CCCNC(=N)N)C(=O)C[C@@H](N)Cc1ccccc1`, “binding entropy term TΔS°” read 1.63 ± 0.12 kcal/mol.
`CC(=O)NCCN(CCC(=O)NCCN(CCC(=O)NCCN(CCC(=O)NCCC(N)=O)C(=O)[C@@H](N)Cc1ccccc1)C(=O)[C@@H](N)Cc1ccccc1)C(=O)[C@@H](N)CCCNC(=N)N`: “binding entropy term TΔS°” 0.239 ± 0.143 kcal/mol.
For `CC(=O)NCCN(CC(=O)NCCN(CC(=O)NCCN(CC(=O)NCCC(N)=O)C(=O)C[C@@H](N)CCCNC(=N)N)C(=O)C[C@@H](N)CCCCN)C(=O)C[C@@H](N)Cc1ccccc1`, “binding entropy term TΔS°” read -2.58 ± 0.215 kcal/mol.

Study 2
SMILES: CCCOC(=O)N1c2cc(CNC)ccc2[C@H](NC(=O)C(=O)Nc2ccc(Cl)c(F)c2)[C@H]1CNC(=N)N
Cell line: TZM-bl
The IC50 was 56 nM (env (Human immunodeficiency virus 1, UniProt Q27Q59); pseudovirus infection, luciferase reporter; 48 h).
The IC50 was 3620 nM (Human immunodeficiency virus 1; viral infection, Env pseudovirus; ZM53M.PB12 clade C).
It gave 910 nM for IC50 (env (Human immunodeficiency virus 1, UniProt Q5G5U9); pseudovirus infection, luciferase reporter; 48 h).
For Human immunodeficiency virus 1; viral infection, Env pseudovirus; 6244_13_B5_4576 clade B T/F: IC50 read 552 nM.
Human immunodeficiency virus 1; viral infection, Env pseudovirus; 3301.v1.c24 clade AC — IC50: 907 nM.
Human immunodeficiency virus 1; viral infection, Env pseudovirus; CAP210.2.00.E8 clade C — IC50: 556 nM.

Mixed results
The inhibition of `F[P-](F)(F)(F)(F)F.OC(Cn1cncn1)(Cn1cc(-[c-]2cccc2)nn1)c1ccc(F)cc1F.[Co+3].c1cc[cH-]c1` (racemic) is reported as 14% (Brugia pahangi; motility, Worminator; adult female; 50 µM, 2 d).
Under “minimum effective concentration”, `C[C@H](Nc1ncnc(N)c1C#N)c1c(-c2ccccc2)[nH]c2c(Cl)cccc2c1=O` is recorded as ≥ 100 nM (primary CLL cells; AKT phosphorylation, inhibitor; 30 min, with: anti-IgM; any decrease).

Repeated from above (study 2):
Human immunodeficiency virus 1; viral infection, Env pseudovirus; CAP210.2.00.E8 clade C — IC50: 556 nM.
